Assay results pooled from the literature.
Numbered parts are unrelated; each lists some results of a single study. Positions count from the first letter of the parent shown.

Block 1
Target: ABI1, truncated, D143A, DHFR fusion (Arabidopsis thaliana)
Method: DHFR PCA, deep sequencing
Medium: yeast
Setting: methotrexate growth selection, single substitutions
Together with: (+)-ABA 17 µM
Reference: wild-type fitted maximum
Reading: higher = stronger binding
Endpoint: relative binding score
Parent: PYL1, truncated, DHFR fusion (Arabidopsis thaliana); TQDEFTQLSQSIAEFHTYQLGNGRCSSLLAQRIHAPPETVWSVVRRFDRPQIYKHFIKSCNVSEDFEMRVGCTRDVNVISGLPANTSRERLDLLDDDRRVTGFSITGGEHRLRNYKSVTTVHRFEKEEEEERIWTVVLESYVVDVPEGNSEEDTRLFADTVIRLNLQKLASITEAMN; partner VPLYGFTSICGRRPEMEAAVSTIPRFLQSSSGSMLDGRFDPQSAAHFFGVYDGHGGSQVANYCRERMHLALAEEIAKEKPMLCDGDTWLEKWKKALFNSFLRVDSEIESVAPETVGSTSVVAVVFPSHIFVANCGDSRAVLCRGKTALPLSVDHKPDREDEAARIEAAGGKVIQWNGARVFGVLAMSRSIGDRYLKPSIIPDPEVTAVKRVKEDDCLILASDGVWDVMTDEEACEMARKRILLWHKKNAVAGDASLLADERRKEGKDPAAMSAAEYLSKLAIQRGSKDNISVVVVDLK
L112V: 5.71%
L112N: -5.31%
G21A: 84.3%
T120E: -6.93%
V161K: 0.173%
T120A: 10.6%
Y141C: 6.98%
N85D: 72.9%
V70M: 45.1%
V70N: 26.7%
L169H: -9.42%
G71N: 34.6%
P37C: 58.3%
L82F: 45.8%
D75E: 90.1%

Block 2
Target: RNA binding protein fox-1 homolog 2, RRM domain, GST-SBP tag (RBFOX2, Homo sapiens, UniProt O43251-10, residues 100-194)
Method: RNA Bind-n-Seq
Form: RNA
Medium: in vitro
Concentration: 365 nM
Setting: natural RNA segment, single round, ends assumed
Reference: no-protein control
Reading: higher = stronger binding
Endpoint: RBNS enrichment (R)
Constant ends, left off below: GGGAGUUCUACAGUCCGACGAUC … UGGAAUUCUCGGGUGCCAA
Target sequence (chain): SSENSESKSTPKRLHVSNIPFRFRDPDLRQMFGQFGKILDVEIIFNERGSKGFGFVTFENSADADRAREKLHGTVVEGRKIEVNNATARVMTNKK
AGUAAGUUGUUAACUGAGGGCUUUAAACCUGGAGGCUCUUCCUGAAAGUAUGUUCAUGAAUACCCCAAGCAUCAAGGUCUAAAUAAUUUUCAGAAGAUUAGAAUUGGGUA: 1.02
CUUUCAGUGAAGAAUCCUCUAAGAUAAAACUUCUAUUUAAAGACUUUAACUAGAAAGUGUUUAUUUUGGCUACAUUGUUCACCUUCUGCUGUAUUGGUAUUUGUCUGUUG: 0.486
UAUUCUGAACAAACGCUUGCACUGACCAAAGCUUGUGUUUAGCGUGUGUUUAGCAUAGGUGCUGUAGUUGGAGUGGGCCCCACCUCUGCUCCUUUCAGUGUUCUUGCUGU: 0.278
ACCACAUGGUGGUUCCCAACCAUCUGUAAUGGGAUCUGAUGCCCUCUUCUGGUGUGUCUGAAGACAACAGUAGUGUACUCACGUAUAUGAAAUAAAUAAAUCUUAAAAAA: 0.44
CGCUGCAAAACGCGCAGAUGUGCAGCAGAUUGGAAGGAGACACAGAUGGUCCUUUUUUUCCUGUUUCUGAAAAAGAAAUAAUAAUAUCCAGGUCAACAGAAUGAAAAAUG: 0.227

Block 3
Target: Phosphate system positive regulatory protein PHO4, full length, GST-tagged (PHO4, Saccharomyces cerevisiae, UniProt P07270, residues 1-312)
Method: competition protein-binding microarray
Form: double-stranded DNA, one strand shown
Medium: in vitro
Concentration: 2 µM
Setting: whole 60-bp probe, lowest competitor level
Together with: Cbf1 competitor, 0.05 µM
Reading: higher = stronger binding
Endpoint: fluorescence intensity
Constant ends, left off below: … GTCTTGATTCGCTTGACGCTGCTG
Construct (chain): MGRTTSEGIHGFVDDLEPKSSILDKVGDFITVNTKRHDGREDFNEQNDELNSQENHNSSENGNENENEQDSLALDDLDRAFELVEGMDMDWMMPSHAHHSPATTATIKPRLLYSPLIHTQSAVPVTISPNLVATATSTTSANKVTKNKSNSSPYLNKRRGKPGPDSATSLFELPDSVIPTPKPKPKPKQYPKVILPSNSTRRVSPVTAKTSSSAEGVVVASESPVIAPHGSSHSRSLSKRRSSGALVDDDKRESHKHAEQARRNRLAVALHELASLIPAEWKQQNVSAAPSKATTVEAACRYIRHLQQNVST
CTAACGAAGGTTTGGGTTGTGGGTGACAAGCCAAGT: 5390 a.u.
ATAAAATTTCAGAATCACATGTTCGTAAAACAACCG: 8860 a.u.
CTTCTGTAAATTTGAACGGTGGGTGGACGCGCCCCG: 4310 a.u.
CACAACAGAGTTCACCACGTGGTAACCTATTTCTAC: 19000 a.u.
CCTTTGCAGTAGCATCACATGAATCGCGAAAGTCTA: 5060 a.u.
TTCAACAGGATCATTAATGTGACGGTCGATCGAAGC: 3540 a.u.
CATCCCAATAGAATCCACGTGGGTAAAAGCTACGGC: 17300 a.u.
ACCTTGTTCCAATTGTTCGTGATGGATTTCAACGGA: 4390 a.u.
CTTCTGTAAATTTGTCACATCACTTGACGCGCCCCG: 4000 a.u.
CTTCTGTAAATTTTTCACGTGTAGTGAAGCGCCCCG: 12300 a.u.
AATGTCGACCTTTTGGACGTGGGTACATGGACGAGC: 5520 a.u.
CATACCCAACCTTTACACGTGTTTTAAGATATTTGT: 19900 a.u.
AACTGAGGTTTTCGTCACATGTACCGCCCTTTCTTC: 7340 a.u.
CTTTCCCGATCTTTTCACGTGCACTTAGCACATTTG: 14700 a.u.
TCCGAGGTTAGAGTGCCCGTGATGGACCTTTACGAA: 5970 a.u.
AAATTACTAAGTTTTCACGTGGAATACCCCGTATGA: 12600 a.u.
CGATCTGGATATCACCACGCAGATCGACTCTTACAT: 6800 a.u.

Block 4
Target: Protein C-ets-1 (ETS1, Homo sapiens, UniProt P14921, residues 1-441, K379A, full length assumed)
Method: protein-binding microarray
Form: double-stranded DNA, one strand shown
Medium: in vitro
Concentration: not given
Setting: k-mer, scored over probes, only values ≥0.25
Reading: higher = stronger binding
Endpoint: E-score
Target sequence (chain): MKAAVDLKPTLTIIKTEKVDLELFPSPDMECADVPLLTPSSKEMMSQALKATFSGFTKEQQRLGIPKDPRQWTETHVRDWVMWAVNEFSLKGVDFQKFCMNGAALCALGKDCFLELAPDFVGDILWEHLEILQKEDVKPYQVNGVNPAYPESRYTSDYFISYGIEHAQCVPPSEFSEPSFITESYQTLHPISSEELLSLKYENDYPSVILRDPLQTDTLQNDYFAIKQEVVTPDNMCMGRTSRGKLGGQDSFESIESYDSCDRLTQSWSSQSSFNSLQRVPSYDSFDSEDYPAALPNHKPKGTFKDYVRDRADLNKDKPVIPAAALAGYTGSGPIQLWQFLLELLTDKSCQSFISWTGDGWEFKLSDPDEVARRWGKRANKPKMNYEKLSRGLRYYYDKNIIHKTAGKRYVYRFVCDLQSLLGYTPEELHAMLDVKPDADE
AGTAGTAC: 0.264
ACAGGTAC: 0.254
GTTGTATA: 0.31
ACGACAAA: 0.272
CACTTCCG: 0.404
CCGGTAGG: 0.253
GGTTGTCA: 0.253
ATCCCCGC: 0.25
ATATCTAC: 0.262
CCGGACAA: 0.283
CGATATCG: 0.29
ACCATCAG: 0.264
ACCGGAAA: 0.489
AACGACGG: 0.31
